Results of several laboratories.
Every numbered part comes from another study and shows a few of its results, in no order. Positions count from the first letter of the parent shown.
Sequence of UniProt P62344 (whole entry, looked up): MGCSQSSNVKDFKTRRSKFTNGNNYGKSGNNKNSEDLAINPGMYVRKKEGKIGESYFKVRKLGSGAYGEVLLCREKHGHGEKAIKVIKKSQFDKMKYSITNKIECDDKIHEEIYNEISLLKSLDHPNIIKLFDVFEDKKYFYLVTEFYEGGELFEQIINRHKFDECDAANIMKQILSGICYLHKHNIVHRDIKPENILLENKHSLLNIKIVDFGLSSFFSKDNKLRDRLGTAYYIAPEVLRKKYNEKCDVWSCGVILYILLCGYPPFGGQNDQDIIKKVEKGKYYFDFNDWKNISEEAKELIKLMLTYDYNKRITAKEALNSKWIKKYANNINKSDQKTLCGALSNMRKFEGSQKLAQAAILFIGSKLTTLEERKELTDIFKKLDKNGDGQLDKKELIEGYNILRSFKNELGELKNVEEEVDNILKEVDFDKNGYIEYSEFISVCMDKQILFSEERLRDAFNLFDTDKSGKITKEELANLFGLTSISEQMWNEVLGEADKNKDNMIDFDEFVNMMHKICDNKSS
Sequence of UniProt P17106 (whole entry, looked up): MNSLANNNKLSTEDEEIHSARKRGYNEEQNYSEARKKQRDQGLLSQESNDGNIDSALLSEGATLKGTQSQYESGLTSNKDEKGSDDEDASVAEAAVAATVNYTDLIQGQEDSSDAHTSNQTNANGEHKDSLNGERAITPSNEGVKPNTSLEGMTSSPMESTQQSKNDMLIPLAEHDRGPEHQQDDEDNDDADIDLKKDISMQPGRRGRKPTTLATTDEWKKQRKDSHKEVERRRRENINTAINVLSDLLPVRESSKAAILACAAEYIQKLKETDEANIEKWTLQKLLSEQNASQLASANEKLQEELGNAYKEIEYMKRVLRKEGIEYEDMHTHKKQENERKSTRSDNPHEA

Study 1 — read-out: peptide-MHC binding; molecule type: peptide; concentration: concentration not given
Target: HLA class I histocompatibility antigen, B alpha chain, allele B*18:01 (Homo sapiens, UniProt P01889)
`FEFTSFFY`: binding “active”.
`FESVAWSA` — result for binding: “active”.
For `WEAWWTEY`, binding read “active”.

Study 2 — target: CCNB3, cyclin fold, Cln2 fusion (human); method: yeast growth competition, sequencing; sample: yeast; notes: strong parent motif; relative to: not given; direction: higher = stronger binding; parent: viral docking peptide; YKVKRRLVFGADD
`YKVKRRLVYGADD [F9Y]` — result for “normalised enrichment score”: 1.09.
`YKVKRYLVFGADD [R6Y]`: “normalised enrichment score” 0.199.
For `YWVKRRLVFGADD [K2W]`, “normalised enrichment score” read 1.24.
`YKVKGRLVFGADD [R5G]`: “normalised enrichment score” -0.0521.
`YKVIRRLVFGADD [K4I]` — result for “normalised enrichment score”: 0.48.
`YKVKRRQVFGADD [L7Q]`: “normalised enrichment score” -0.115.
For `YTVKRRLVFGADD [K2T]`, “normalised enrichment score” read 2.46.
Under “normalised enrichment score”, `YKVKRRLVFGAVD [D12V]` is recorded as 1.94.

Study 3 — read-out: enzyme activity; mode: inhibitor; method: radiometric; concentration: 0.5 µM
Target: Dual specificity tyrosine-phosphorylation-regulated kinase 1B (DYRK1B, Homo sapiens, UniProt Q9Y463)
The remaining activity of CS(=O)(=O)CCNCc1ccc(-c2ccc3ncnc(Nc4ccc(OCc5cccc(F)c5)c(Cl)c4)c3c2)o1 is reported as 93.1%.
With O=C(Nc1ccc(Cl)cc1)c1ccccc1NCc1ccncc1 the remaining activity was 106%.
For O=c1cc(N2CCOCC2)oc2c1ccc1ccccc12, the remaining activity was 90.5%.
Cn1cc(/C=C2\C(=O)Nc3ccc(S(N)(=O)=O)cc32)c2ccccc21 has a remaining activity of 104%.
For O=C1NC(=O)/C(=C/c2ccc3nccnc3c2)S1, the remaining activity was 31.3%.
For CCOc1cc2ncnc(Nc3cccc(Br)c3)c2cc1OCC, the remaining activity was 103%.
COc1ccc(-c2cnc3c(-c4ccsc4)cnn3c2)cc1 has a remaining activity of 78.9%.
Cn1cnc2cc3c(Nc4cccc(Br)c4)ncnc3cc21 has a remaining activity of 98.1%.
For C[S+]([O-])c1ccc(-c2nc(-c3ccncc3)c(-c3ccc(F)cc3)[nH]2)cc1 (centres unmarked), the remaining activity was 104%.
With CC(C)c1nn(-c2c(Cl)cccc2Cl)c2nc(Cc3ccc(OCCO)cc3)[nH]c(=O)c12 the remaining activity was 99.9%.
CO[C@H]1[C@@H](OC)C[C@H](C)[C@@H](OC)C2=CC(=O)C=C(NC(=O)/C(C)=C/C=C\[C@H](OC)[C@@H](OC(N)=O)/C(C)=C/[C@@H]1C)C2=O gave a remaining activity of 104%.
The remaining activity of COc1cc2ncnc(Nc3ccc(OCc4ccccc4)cc3)c2cc1OC is reported as 104%.
With COc1ccc(Cl)cc1NC(=O)Nc1cc(C)nc2ccccc12 the remaining activity was 99.7%.
CCC(=O)Nc1ccc2ncnc(Nc3cccc(Br)c3)c2c1 has a remaining activity of 95.2%.
CN(C)CCCn1cc(C2=C(c3c[nH]c4ccccc34)C(=O)NC2=O)c2ccccc21 has a remaining activity of 76%.
CCN1/C(=C/C(C)=O)Sc2ccc(OC)cc21 gave a remaining activity of 32.9%.

Mixed results
The inhibition of CN1CCN(C(=O)O[C@H]2c3nccnc3C(=O)N2c2ccc(Cl)cn2)CC1 is reported as -20.1% (Sarcocystis neurona; parasite growth; 10 µM, 96 h, secondary screen).
Cc1cc(NC(=O)c2cccc(S(F)(F)(F)(F)F)c2)cc(-n2ccn3nc(-c4cccnc4)cc23)c1 gave a remaining binding of 95.1% (CDPK1 (Plasmodium falciparum, UniProt P62344); cell-free assay, competition with immobilised ligand; 1 µM).
`CCTAACTACTATAGGCATGTGCGATAGCTTCGTACAGTCTTGATTCGCTTGACGCTGCTG` has a fluorescence intensity of 615 a.u. (Centromere-binding protein 1, full length, N-terminal tag (CBF1, Saccharomyces cerevisiae, UniProt P17106, residues 1-351); protein-binding microarray; double-stranded DNA, one strand shown, in vitro; 0.8 µM, whole 60-bp probe, no competitor; higher = stronger binding).
COCC1(CO)C(=O)C2CCN1CC2 (centres unmarked): “nuclear SOX9 intensity” 85.4 % of DMSO (mouse MPNST tumor cells; high-content immunofluorescence imaging, measured: nuclear SOX9; 10 µM, 12 h, mean of 2 replicates; relative to: DMSO control, higher = more nuclear SOX9).
c1cncc([C@@H]2CCCN2)c1 has an inhibition of -43.2% (Sarcocystis neurona; parasite growth; 10 µM, 96 h, secondary screen).
